{"data": "Measurements pooled from the literature", "note": "Each numbered part is a random draw from the data of one study; scales do not carry over between parts. Several values in a cell are separate wells, animals, samples, runs or records.", "UniProt P55212, sequence (whole entry, looked up)": "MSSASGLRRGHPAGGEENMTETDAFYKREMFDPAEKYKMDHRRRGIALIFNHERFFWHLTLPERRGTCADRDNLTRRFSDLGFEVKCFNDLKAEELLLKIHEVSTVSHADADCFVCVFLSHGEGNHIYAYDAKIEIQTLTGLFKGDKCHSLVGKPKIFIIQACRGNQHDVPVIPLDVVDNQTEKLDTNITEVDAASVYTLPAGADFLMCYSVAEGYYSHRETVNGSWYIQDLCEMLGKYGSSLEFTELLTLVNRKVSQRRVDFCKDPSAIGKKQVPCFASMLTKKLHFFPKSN"}
{"data": "Sample 1", "Compound": "C#CCN1C(=O)C(O)(C(=O)O)Oc2cc(F)ccc21 (stereo not shown)", "organism": "Arabidopsis thaliana", "strain": "Col-0", "setting": "seed germination"}
{"concentration": "50 µg/mL", "root length [cm]": 0.154}
{"concentration": "3.125 µg/mL", "root length [cm]": 1.04}
{"concentration": "6.25 µg/mL", "root length [cm]": 0.94}
{"concentration": "12.5 µg/mL", "root length [cm]": 0.585}
{"concentration": "100 µg/mL", "root length [cm]": 0.01}
{"concentration": "25 µg/mL", "root length [cm]": 0.361}
{"data": "Sample 2", "SMILES": "Cn1cc(-c2cccc(CN3CCC4(CC3)COc3c4ccc4c3CN([C@H]3CCC(=O)NC3=O)C4=O)c2)cn1", "host": "Crbn I391V mouse, MC-38 tumour"}
{"dose": "30 mg/kg", "time": "day 32", "together with": "anti-LAG3 antibody 10 mg/kg weekly", "tumour volume": "1100 mm3 and 1340 mm3 and 144 mm3"}
{"route": "oral, daily", "dose": "30 mg/kg", "time": "day 19", "setting": "anti-PD1 combination study", "tumour volume": "415 mm3 and 1200 mm3 and 485 mm3 and 230 mm3 and 436 mm3"}
{"route": "oral, daily", "dose": "30 mg/kg", "time": "day 33", "setting": "anti-PD1 combination study", "tumour volume": "2260 mm3 and 915 mm3 and 1320 mm3 and 2410 mm3 and 1690 mm3"}
{"dose": "30 mg/kg", "time": "day 25", "together with": "anti-LAG3 antibody 10 mg/kg weekly", "tumour volume": "961 mm3 and 41.4 mm3 and 417 mm3 and 878 mm3 and 512 mm3 and 2480 mm3"}
{"route": "oral", "dose": "30 mg/kg once daily", "time": "day 10", "tumour volume": "68.5 mm3 and 288 mm3 and 124 mm3 and 125 mm3 and 246 mm3"}
{"dose": "30 mg/kg", "time": "day 29", "together with": "anti-LAG3 antibody 10 mg/kg weekly", "tumour volume": "895 mm3 and 2360 mm3 and 718 mm3 and 2010 mm3 and 102 mm3"}
{"dose": "30 mg/kg", "time": "day 50", "together with": "anti-LAG3 antibody 10 mg/kg weekly", "tumour volume": "2030 mm3"}
{"dose": "30 mg/kg", "time": "day 11", "together with": "anti-LAG3 antibody 10 mg/kg weekly", "tumour volume": "770 mm3 and 374 mm3 and 916 mm3 and 273 mm3"}
{"dose": "30 mg/kg", "time": "day 19", "together with": "anti-LAG3 antibody 10 mg/kg weekly", "tumour volume": "48.7 mm3 and 562 mm3 and 201 mm3 and 513 mm3 and 1040 mm3 and 979 mm3 and 1080 mm3 and 318 mm3"}
{"dose": "30 mg/kg", "time": "day 36", "together with": "anti-LAG3 antibody 10 mg/kg weekly", "tumour volume": "2400 mm3 and 228 mm3 and 2040 mm3"}
{"route": "oral, daily", "dose": "30 mg/kg", "time": "day 15", "setting": "anti-PD1 combination study", "tumour volume": "301 mm3 and 322 mm3 and 508 mm3 and 566 mm3 and 897 mm3"}
{"route": "oral, daily", "dose": "30 mg/kg", "time": "day 39", "setting": "anti-PD1 combination study", "tumour volume": "2110 mm3"}
{"route": "oral, daily", "dose": "30 mg/kg", "time": "day 36", "setting": "anti-PD1 combination study", "tumour volume": "2180 mm3 and 2640 mm3 and 1230 mm3"}
{"data": "Sample 3", "SMILES": "CC(C)(C)n1nc(-c2ccc(Cl)cc2)c2c(N)ncnc21", "cell line": "L929", "technique": "CCK-8"}
{"effect on": "necroptosis protection", "concentration": "0.185 µM", "together with": "TNF-α-induced", "viability": "18.6%"}
{"concentration": "12.5 µM", "viability": "56.3% and 60.1% and 69% and 64.5%"}
{"effect on": "necroptosis protection", "concentration": "0.062 µM", "together with": "TNF-α-induced", "viability": "16.5%"}
{"effect on": "necroptosis protection", "concentration": "2.5 µM", "together with": "TNF-α-induced", "viability": "61%"}
{"effect on": "necroptosis protection", "concentration": "0.00229 µM", "together with": "TNF-α-induced", "viability": "13.2%"}
{"concentration": "12.5 µM", "together with": "zVAD", "viability": "80.1% and 66% and 79.7% and 80.8%"}
{"data": "Sample 4", "SMILES": "CCCCC[C@@H](O)CC(=O)N[C@H]1COC(=O)[C@H](CO)NC(=O)[C@H](Cc2ccccc2)NC(=O)[C@@H](Cc2c[nH]c3ccccc23)NC(=O)[C@@H](C(C)O)NC(=O)[C@H](CC(N)=O)NC(=O)[C@@H](C(C)C)NC(=O)[C@H](CC(C)C)NC(=O)[C@@H](Cc2ccc(O)cc2)N(C)C(=O)CNC(=O)[C@H](CO)NC(=O)[C@@H](CC(N)=O)NC1=O (stereo partly shown)", "organism": "Staphylococcus aureus", "strain": "USA300", "concentration": "2 x MIC"}
{"time": "300 min", "viable cells": "600 CFU/mL and 700 CFU/mL and 400 CFU/mL"}
{"time": "120 min", "viable cells": "1100 CFU/mL and 1200 CFU/mL and 1300 CFU/mL"}
{"time": "180 min", "viable cells": "1200 CFU/mL and 800 CFU/mL"}
{"time": "60 min", "viable cells": "1900 CFU/mL and 1500 CFU/mL and 1700 CFU/mL"}
{"time": "0 min", "viable cells": "4.8e+08 CFU/mL and 4.1e+08 CFU/mL and 4.3e+08 CFU/mL"}
{"data": "Other studies, line by line"}
{"Structure (SMILES)": "CC[C@H](C)[C@H](NC(C)=O)C(=O)N[C@@H](CCC(=O)O)C(=O)N[C@H](C(=O)N[C@H](C=O)CC(=O)O)[C@@H](C)O", "target": "Caspase-6 (CASP6, Homo sapiens, UniProt P55212)", "effect on": "enzyme activity", "action": "inhibitor", "concentration": "50 nM", "measurement": "inhibition", "result": "8%"}
{"note": "Repeated from above (sample 3):"}
{"concentration": "12.5 µM", "viability": "56.3% and 60.1% and 69% and 64.5%"}
{"effect on": "necroptosis protection", "concentration": "0.062 µM", "together with": "TNF-α-induced", "viability": "16.5%"}
{"effect on": "necroptosis protection", "concentration": "2.5 µM", "together with": "TNF-α-induced", "viability": "61%"}
{"effect on": "necroptosis protection", "concentration": "0.00229 µM", "together with": "TNF-α-induced", "viability": "13.2%"}
